Measured values gathered from unrelated publications.
Compare with care: the assays were run in different laboratories. ± marks the error that the study gave.

SMILES | test system | setting | tissue uptake
CC(C(=O)O)n1nc(Cn2cc3cc(OCC[18F])c(Cl)cc3n2)c2ccccc2c1=O (racemic) | Sprague-Dawley rat male, pancreas | 60 min | 0.06 ± 0.03 %ID/g
COc1cccc(OC)c1-c1cc(C(=O)NC2(C(=O)O)C3CC4CC(C3)CC2C4)nn1-c1ccc(C(=O)NCCNC(=O)[C@H](CCCCNC(=O)[C@H](CC(C)C)NC(=O)C2OC2C(=O)O)NC(=O)CN2CCN(CC(=O)[O-])CCN(CC(=O)[O-])CCN(CC(=O)[O-])CC2)cc1C(C)C.[177Lu+3] (mixture of isomers) | mouse HT-29 xenograft, large intestine | 24 h post injection, biodistribution | 0.37 %ID/g
CN(CCCO)Cc1ccc(-c2noc(-c3ccc(OCC[18F])c(C(F)(F)F)c3)n2)cc1F | Sprague-Dawley rats, male, small intestine | 5 min post-injection | 1.06 ± 0.19 %ID/g
COc1cccc(OC)c1-c1cc(C(=O)NC2(C(=O)O)C3CC4CC(C3)CC2C4)nn1-c1ccc(C(=O)N(C)CCOCCN(C)C(=O)[C@H](CCCCNC(=O)[C@H](CC(C)C)NC(=O)C2OC2C(=O)O)NC(=O)CN2CCN(CC(=O)[O-])CCN(CC(=O)[O-])CCN(CC(=O)[O-])CC2)cc1C(C)C.[177Lu+3] (mixture of isomers) | mouse, HT-29 xenograft, lung | 72 h post injection | 0.29 %ID/g
CCCC[C@H](NC(=O)CCCCCCCNC(=O)CN1CCN(CC(=O)O)CCN(CC(=O)O)CC1)C(=O)N[C@H]1CC(=O)NCCCC[C@@H](C(N)=O)NC(=O)[C@H](Cc2c[nH]c3ccccc23)NC(=O)[C@H](CCCNC(=N)N)NC(=O)[C@@H](Cc2ccccc2)NC(=O)[C@H](Cc2c[nH]cn2)NC1=O [fluorine-18 labelled] | C57 mice B16-F10 melanoma, spleen | intravenous, 0.37 MBq, 1 h | 0.35 ± 0.29 %ID/g
CCOC(=O)CNC(=O)CN1CCN(CC(=O)NCC(=O)OCC)CCN(CC(=O)NCC(=O)OCC)CCN(CC(=O)NCC(=O)OCC)CC1.[177Lu+3] | Sprague-Dawley rat, blood | intravenous (tail vein), dose not given, 2 h | 0.039 ± 0.007 % injected dose/g
COc1cccc(OC)c1-c1cc(C(=O)NC2(C(=O)O)C3CC4CC(C3)CC2C4)nn1-c1ccc(C(=O)N(C)CCCN(C)C(=O)[C@H](CCCCNC(=O)[C@H](CC(C)C)NC(=O)C2OC2C(=O)O)NC(=O)CN2CCN(CC(=O)[O-])CCN(CC(=O)[O-])CCN(CC(=O)[O-])CC2)cc1C(C)C.[177Lu+3] (mixture of isomers) | mouse, HT-29 xenograft, kidney | 24 h post injection | 5.9 %ID/g
O=C(CN1CCN(CC(=O)NCc2ncccc2O)CCN(CC(=O)NCc2ncccc2O)CCN(CC(=O)NCc2ncccc2O)CC1)NCc1ncccc1O.[177Lu+3] | Sprague-Dawley rat, lung | intravenous (tail vein), dose not given, 2 h | 0.135 ± 0.028 % injected dose/g
O=C(O)CCCOc1ccc([18F])cc1-c1cc(-c2ccccc2C(F)(F)F)n(-c2ccccc2)n1 | mouse, muscle | intravenous, dose not given, 15 min | 2.56 ± 0.49 %ID/g
